Results gathered from unrelated publications.
Each line is one published result; not all experiments were run side by side. Values joined by “and” are separate records of one study, mostly repeats; a detail may differ. ± gives the spread as reported.

| SMILES | target or system | assay | test system | conditions | how to read | measurement | result |
| --- | --- | --- | --- | --- | --- | --- | --- |
| COc1cccc(OC)c1-c1cc(C(=O)NC2(C(=O)O)C3CC4CC(C3)CC2C4)nn1-c1ccc(C(=O)N(C)CCCN(C)CCCN(C)C(=O)[C@H](CCCCNC(=O)[C@H](CC(C)C)NC(=O)C2OC2C(=O)O)NC(=O)CN2CCN(CC(=O)[O-])CCN(CC(=O)[O-])CCN(CC(=O)[O-])CC2)cc1C(C)C.[177Lu+3] (mixture of isomers) | – | – | mouse, HT-29 xenograft, kidney | 24 h post injection | – | tissue uptake | 8.7 %ID/g |
| N#C[C@@H]1CC(F)(F)CN1C(=O)CNC(=O)c1ccnc2c(NC(=O)[C@H](CCCCNC(=O)CCOCCOCCOCCOCCOCCOCCNC(=O)CN3CCN(CC(=O)[O-])CCN(CC(=O)[O-])CCN(CC(=O)[O-])CC3)NC(=O)CCCc3ccc(I)cc3)cccc12.[177Lu+3] | – | – | mouse, U-87 MG tumour xenograft, kidneys | 72 h | – | tissue uptake | 0.82 ± 0.22 %ID/g |
| CCCC[C@H](NC(=O)CNC(=O)CNC(=O)[C@H](CCCCNC(=O)[C@H](CC(=O)O)NC(=O)C(C)c1ccc(CC(C)C)cc1)NC(=O)CN1CCN(CC(=O)O)CCN(CC(=O)O)CCN(CC(=O)O)CC1)C(=O)N[C@H]1CC(=O)NCCCC[C@@H](C(N)=O)NC(=O)[C@H](Cc2c[nH]c3ccccc23)NC(=O)[C@H](CCCNC(=N)N)NC(=O)[C@@H](Cc2ccccc2)NC(=O)[C@H](Cc2c[nH]cn2)NC1=O (some centres unmarked) [lutetium-177 labelled] | – | – | C57 mouse, intestines | intravenous, 0.037 MBq, 24 h | – | tissue uptake | 1.89 ± 0.6 %ID |
| [11CH3]N1CCC(NC(=O)c2cc(-c3c(O)cc(O)cc3Oc3ccc([N+](=O)[O-])cc3)on2)CC1 | – | – | Wistar rat, female, healthy, blood | intravenous, 10 min | – | tissue uptake | 9.7 ± 1.1 %ID |
| COc1cccc(OC)c1-c1cc(C(=O)NC2(C(=O)O)C3CC4CC(C3)CC2C4)nn1-c1ccc(C(=O)N(C)CCOCCOCCN(C)C(=O)[C@H](CCCCNC(=O)[C@H](CC(C)C)NC(=O)C2OC2C(=O)O)NC(=O)CN2CCN(CC(=O)[O-])CCN(CC(=O)[O-])CCN(CC(=O)[O-])CC2)cc1C(C)C.[177Lu+3] (mixture of isomers) | – | – | mouse HT-29 xenograft, small intestine | 168 h post injection, biodistribution | – | tissue uptake | 0.054 %ID/g |
| COc1ccccc1CN1CC(C(=O)NCCN(C)CCc2ccccc2)CCC1=O (centres unmarked) | Trypanosoma cruzi | reporter mRNA translation, inhibitor, item: Renilla luciferase mRNA | cell-free extract | concentration not given, test 2 | baseline: positive over negative control | translation activity | 158% and 92.9% |
| COc1cccc(OC)c1-c1cc(C(=O)NC2(C(=O)O)C3CC4CC(C3)CC2C4)nn1-c1ccc(C(=O)NCCNC(=O)[C@H](CCCCNC(=O)[C@H](CC(C)C)NC(=O)C2OC2C(=O)O)NC(=O)CN2CCN(CC(=O)[O-])CCN(CC(=O)[O-])CCN(CC(=O)[O-])CC2)cc1C(C)C.[177Lu+3] (mixture of isomers) | – | – | mouse HT-29 xenograft, large intestine | 72 h post injection, biodistribution | – | tissue uptake | 0.25 %ID/g |
| CC(C)Cc1ccc(C(C)C(=O)N[C@@H](CCCCNC(=O)CCOCCOCCOCCOCCOCCOCCNC(=O)CN2CCN(CC(=O)[O-])CCN(CC(=O)[O-])CCN(CC(=O)[O-])CC2)C(=O)Nc2cccc3c(C(=O)NCC(=O)N4CC(F)(F)C[C@H]4C#N)ccnc23)cc1.[177Lu+3] (some centres unmarked) | – | – | mouse, U-87 MG tumour xenograft, salivary gland | 4 h | – | tissue uptake | 12.7 ± 3.16 %ID/g |
| Cc1ccc2c(c1)sc(-c1ccc(N(C)C)cc1)[n+]2C | Trypanosoma cruzi | reporter mRNA translation, inhibitor, item: capped polyadenylated Renilla luciferase mRNA | cell-free extract | concentration not given | baseline: control RNA | relative translation | 83.9% |
| O=C(O)CCCOc1ccc([18F])cc1-c1cc(-c2ccccc2C(F)(F)F)n(-c2ccccc2)n1 | – | – | mouse, bone | intravenous, dose not given, 360 min | – | tissue uptake | 2.31 ± 0.34 %ID/g |
| N#C[C@@H]1CC(F)(F)CN1C(=O)CNC(=O)c1ccnc2c(NC(=O)CCOCCOCCOCCOCCOCCOCCNC(=O)[C@H](CCCCNC(=O)CN3CCN(CC(=O)[O-])CCN(CC(=O)[O-])CCN(CC(=O)[O-])CC3)NC(=O)CCCc3ccc(I)cc3)cccc12.[177Lu+3] | – | – | mouse, U-87 MG tumour xenograft, salivary gland | 48 h | – | tissue uptake | 0.43 ± 0.14 %ID/g |

Some of these lines once more:
| SMILES | target or system | assay | test system | conditions | how to read | measurement | result |
| --- | --- | --- | --- | --- | --- | --- | --- |
| COc1ccccc1CN1CC(C(=O)NCCN(C)CCc2ccccc2)CCC1=O (centres unmarked) | Trypanosoma cruzi | reporter mRNA translation, inhibitor, item: Renilla luciferase mRNA | cell-free extract | concentration not given, test 2 | baseline: positive over negative control | translation activity | 158% and 92.9% |
| COc1cccc(OC)c1-c1cc(C(=O)NC2(C(=O)O)C3CC4CC(C3)CC2C4)nn1-c1ccc(C(=O)NCCNC(=O)[C@H](CCCCNC(=O)[C@H](CC(C)C)NC(=O)C2OC2C(=O)O)NC(=O)CN2CCN(CC(=O)[O-])CCN(CC(=O)[O-])CCN(CC(=O)[O-])CC2)cc1C(C)C.[177Lu+3] (mixture of isomers) | – | – | mouse HT-29 xenograft, large intestine | 72 h post injection, biodistribution | – | tissue uptake | 0.25 %ID/g |
